Measured values from different studies.
Parts stem from different laboratories: compare values within a part only.

Study 1 — method: RNA Bind-n-Seq; form: RNA; sample: in vitro; tested at: 1 µM; notes: whole 134-nt RNA, ends assumed; with: 150 mM KCl; baseline: input library; direction: higher = stronger binding
Target: Ras GTPase-activating protein-binding protein 1, RRM domain (G3BP1, Homo sapiens, UniProt Q13283)
Chain of UniProt Q13283 (whole entry, looked up): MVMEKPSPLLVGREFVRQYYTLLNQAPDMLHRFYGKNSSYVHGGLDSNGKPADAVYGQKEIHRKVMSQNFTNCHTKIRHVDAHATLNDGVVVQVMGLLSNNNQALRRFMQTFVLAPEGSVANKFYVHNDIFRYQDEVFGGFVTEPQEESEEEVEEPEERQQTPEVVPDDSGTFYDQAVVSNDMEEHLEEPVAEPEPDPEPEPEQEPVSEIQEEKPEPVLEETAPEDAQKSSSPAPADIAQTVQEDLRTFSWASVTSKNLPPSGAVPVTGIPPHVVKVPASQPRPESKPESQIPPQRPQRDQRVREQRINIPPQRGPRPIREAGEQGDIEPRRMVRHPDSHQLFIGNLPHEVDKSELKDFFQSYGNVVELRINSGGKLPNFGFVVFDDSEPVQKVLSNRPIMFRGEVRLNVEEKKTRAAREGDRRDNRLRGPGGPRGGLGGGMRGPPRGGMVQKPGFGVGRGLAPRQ
Constant ends, left off below: GGGAGUUCUACAGUCCGACGAUC … UGGAAUUCUCGGGUGUCAAGG
With `GCAGGAAGUAAAAACAAAUGGAAAUGCUUCGGGUAGUGGCAGGGGUGGGGGUUGCUAAGGAAAGGGUGGGAUGGGAGUGGGUAAAGAGUU` the log2 enrichment was 0.939.
For `UUAAGAAUAUUUAGAUAUUUGUAAAAGAAUUUGAAUGAUUUAUUUAAUAUAACGUUUAUUUUAUUAGCUCUAUUCCAAUUGAUUACAACC`, the log2 enrichment was -0.21.
`CUGUGCUACACAUCGUAUGUACCGAAUCGGGGAAAGGGGAAAAAAAGGGGAAAAAAAGGGGAAAGUAUUAUGUUACGCCGUUCGGAUCUG` has a log2 enrichment of 0.486.
`CACAGACAACACGCACCCACACAGACACAGAGGGAAGGGGUUGGGAUGGGGACAGGGUGCACAGCAGGGCGGGGUAGAAACCCAGCCCCU` has a log2 enrichment of -0.0849.
For `UGGCCCUGGUGGCAUGCGGGGAGGAAGAGGUGGCCUCAUGGAUCGUGGUGGUCCCGGUGGAAUGUUCAGAGGCGGCCGUGGUGGAGACAG`, the log2 enrichment was 1.5.
With `ACCAUGCAGGUGGUCAUCUUUGGGAAGUGGGGCAAGGGGGGGAUAGGGAGGGGGGUAACACUUUGGGAACAGGUGGUCCCAGGUCGUUUC` the log2 enrichment was -0.52.
For `UUGCGCCUGUCCCGGGUGAAGUGUGUCGGCCUCUCCGCACGCACCACGGAGACCAGCAGUGCAGUCAUGUGCCUGGACCUUGCAGCUUCC`, the log2 enrichment was -0.354.
With `CAAGUCCUGUGCUACACAUCGUAUGUACCGAAUCGGUUUUUGGUGGUUUUUUUGGAAAGUAUUAUGUUACGCCGUUCGGAUCUGCACUUC` the log2 enrichment was -0.265.
For `UCAAGUCCUGUGCUACACAUCGUAUGUACCGAAUCGGUUUGGUUUUUGGUUUGGAAAGUAUUAUGUUACGCCGUUCGGAUCUGCACUUCC`, the log2 enrichment was -0.226.

Study 2 — method: RNA Bind-n-Seq; form: RNA; sample: in vitro; tested at: 365 nM; baseline: no-protein control; direction: higher = stronger binding
Target: RNA binding protein fox-1 homolog 2, RRM domain, GST-SBP tag (RBFOX2, Homo sapiens, UniProt O43251-10, residues 100-194)
Notes: natural RNA segment, single round, ends assumed
Constant ends, left off below: GGGAGUUCUACAGUCCGACGAUC … UGGAAUUCUCGGGUGCCAA
Residues (chain): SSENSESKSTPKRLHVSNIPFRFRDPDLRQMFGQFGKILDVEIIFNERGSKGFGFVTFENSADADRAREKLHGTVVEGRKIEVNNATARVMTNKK
`GCGUCCAUCUGUGCUGUGCGCCCCACAGUAGACGUGCAGACGUCCCUGAGAGGUUCUUGAAGAUGUUUAUUUAUAUUGUCCUUUUUUACUGGAAGACGUACGCAUACUCC` — result for “RBNS enrichment (R)”: 0.477.
Under “RBNS enrichment (R)”, `ACUCUAGUUAGGACAGACUUGUGCUUUUAUCCUGACUAAAAAGUUAAAUAUUUAAGUCACAUACAUGGUAAAGAUCUAAGUUUCAUUUUCCACAUGGAUGACCAGGAACC` is recorded as 0.285.
Under “RBNS enrichment (R)”, `AGAGGAAAGGCUGAAGCCGCUAACGCUCACACUGCCUGCACGGCACUGUUGCGGAGAGCUCUGAUGGGAACUGUGCAACAUGGAGCGUGGAGCCUGCCGAUCCUAGCUCA` is recorded as 0.972.
`CUGCUUUUCCACAAGGAAUCUCCGUAGAAUUUUGCGGCGACCAGAUGGUGCAUAGGUCUGGAAGGUCUGAUCUCCCUUGGUCUUCCAUGGGAUGGUUAGUGUGGAGGGGA`: “RBNS enrichment (R)” 0.707.
`UGAAGGAGACGCGGGAGCCCACGGAGAACGCUCCAGGAGGGCCUGUCCAUCCUCGCUGUCCUUUCCCUGUUCUCCCCCUGCCCCCCGUCUCUAUCCUCUGUGGCCUUCAG` — result for “RBNS enrichment (R)”: 0.284.
`GAAGUUAACAUCAAGCCAUCAAACCUGGGUAUAGUGCAGAAAACGUGGCACACACUGACCACACAUUAGGCUGUGUCACCAUUGUGUGGUGUACCUGCUGGAAGAAUUCU` — result for “RBNS enrichment (R)”: 0.448.
Under “RBNS enrichment (R)”, `AGAGAAGAAUGGGGACAACAGAAACCUGCUUUGUAGGGGAUUAUGUAGACUAAAAGCCUAGAAGUUCUGCCCACAUCCUUAUGACGCAGCCAAUCUGGAGCUUCAUGUUU` is recorded as 0.501.
`UGAAGUGAUAAAGAAUAUUAUUAGAAUAAAAUGUUUGUAUAUGUAUUUGUGUAUUAAAGAUGUAUUGAGUAAUUUUGUAUUUUUUACAUAUAAAUGUGCUAAAUUACUCU`: “RBNS enrichment (R)” 0.844.

Study 3 — method: universal PBM; form: double-stranded DNA, one strand shown; sample: in vitro; tested at: 600 nM; direction: higher = stronger binding
Target: Sal-like protein 4, full length isoform A (SALL4, Homo sapiens, UniProt Q9UJQ4, residues 1-1053)
Chain of UniProt Q9UJQ4 (whole entry, looked up): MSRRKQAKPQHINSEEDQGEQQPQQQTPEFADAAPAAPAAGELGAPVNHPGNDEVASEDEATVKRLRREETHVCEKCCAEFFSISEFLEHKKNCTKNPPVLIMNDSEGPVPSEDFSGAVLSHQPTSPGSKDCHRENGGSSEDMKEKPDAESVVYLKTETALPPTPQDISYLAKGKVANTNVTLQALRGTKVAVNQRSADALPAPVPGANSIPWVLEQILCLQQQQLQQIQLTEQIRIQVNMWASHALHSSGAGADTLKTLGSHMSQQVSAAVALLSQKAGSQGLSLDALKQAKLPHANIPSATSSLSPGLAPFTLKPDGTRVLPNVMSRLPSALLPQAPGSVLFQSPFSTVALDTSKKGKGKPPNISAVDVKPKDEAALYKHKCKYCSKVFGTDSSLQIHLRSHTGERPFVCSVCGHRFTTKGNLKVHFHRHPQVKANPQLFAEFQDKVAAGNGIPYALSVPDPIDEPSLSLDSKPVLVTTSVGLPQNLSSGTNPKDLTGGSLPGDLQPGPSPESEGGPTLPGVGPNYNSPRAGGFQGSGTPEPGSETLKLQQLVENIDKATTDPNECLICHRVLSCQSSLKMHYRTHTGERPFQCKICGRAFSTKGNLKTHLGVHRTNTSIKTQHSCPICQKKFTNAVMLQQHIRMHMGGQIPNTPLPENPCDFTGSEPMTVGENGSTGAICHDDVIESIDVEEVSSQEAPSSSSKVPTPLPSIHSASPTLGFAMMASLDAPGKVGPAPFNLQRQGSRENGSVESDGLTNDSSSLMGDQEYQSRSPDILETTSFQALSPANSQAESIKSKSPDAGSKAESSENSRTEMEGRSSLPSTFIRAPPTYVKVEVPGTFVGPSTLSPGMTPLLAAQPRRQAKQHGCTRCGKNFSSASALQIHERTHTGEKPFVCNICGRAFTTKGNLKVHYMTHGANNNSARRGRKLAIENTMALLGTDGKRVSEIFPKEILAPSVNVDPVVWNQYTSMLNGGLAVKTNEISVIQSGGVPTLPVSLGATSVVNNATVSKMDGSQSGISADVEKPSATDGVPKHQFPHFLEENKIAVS
Notes: 8-mer, flanks averaged, mean of replicates
The E-score of `AGTTGTAC` is reported as 0.128.
The E-score of `AGACTAAA` is reported as 0.102.
For `TAAAATAA`, the E-score was 0.33.
`CGCGAGTA` has an E-score of -0.0107.
`ACGGTTTA` gave an E-score of -0.0752.
`GCACGCAC` has an E-score of -0.247.
`CCCCCTAG` has an E-score of -0.256.
`ACTCGGCG` gave an E-score of -0.282.
For `TAAACTAA`, the E-score was 0.309.
`CGACCGGC` has an E-score of -0.323.
With `ACGCTGTA` the E-score was 0.0957.
With `GTCCGTAA` the E-score was -0.0838.
`ATGCGTCG` gave an E-score of -0.0389.
`CACCCCAC` gave an E-score of -0.136.
For `TTGCGCAA`, the E-score was 0.103.
`ATGCTTAC` has an E-score of 0.054.
The E-score of `CTGGCGGC` is reported as -0.268.
For `ATCTATGC`, the E-score was 0.103.
With `CGGGTGGA` the E-score was -0.297.
With `AGTTTTAG` the E-score was 0.0393.
With `AAGACGAT` the E-score was 0.0988.
For `CCATAACA`, the E-score was 0.273.
For `AGAGGGAC`, the E-score was -0.203.
For `CTTACTAA`, the E-score was 0.133.
`ATGGTGCA` gave an E-score of 0.00604.

Study 4 — method: RNA Bind-n-Seq; form: RNA; sample: in vitro; tested at: not given; baseline: input RNA pool; direction: higher = stronger binding
Target: RING finger protein unkempt homolog, zinc fingers 1-6, GST-SBP tag (UNK, Homo sapiens, UniProt Q9C0B0, residues 30-357)
Notes: RNA with constant flanks, human-mouse chimeric sites, ends assumed
Constant ends, left off below: GGGAGUUCUACAGUCCGACGAUC … CAACAGAGGAUUGAGCAUCA
Target sequence (chain): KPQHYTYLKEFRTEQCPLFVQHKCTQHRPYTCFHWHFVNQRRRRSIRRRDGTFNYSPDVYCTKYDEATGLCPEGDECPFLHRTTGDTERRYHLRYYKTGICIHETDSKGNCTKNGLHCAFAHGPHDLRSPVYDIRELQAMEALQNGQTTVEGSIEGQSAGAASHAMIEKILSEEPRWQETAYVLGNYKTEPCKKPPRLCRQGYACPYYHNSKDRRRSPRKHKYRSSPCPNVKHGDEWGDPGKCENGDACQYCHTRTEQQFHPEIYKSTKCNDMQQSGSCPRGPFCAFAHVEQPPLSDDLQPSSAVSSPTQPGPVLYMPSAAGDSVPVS
For `AGAGAUAAGACAUCCAGGAACAUGCGAGGCUCCCGGAUGAAUGGGUUUCCAAGUCCCACUCACAGCGCCCACUGUAGCUUCUACCGAACCAGAACCUUGCAGGCAUUGAGUAAUGAGAAG`, the bound/input enrichment was 0.0739 ratio.
The bound/input enrichment of `AAAGAGUGGAUAGAGUGUGCACACGGGAUCGGUGGGACCCGGGCGAAAAAGGAGUGCAAGAUAGAGUUCGAUGACUUCGUAGAGUGUUUGCUUCGGUACAAAACGAUGAGACGUGCACAU` is reported as 0.401 ratio.
The bound/input enrichment of `AGAAAGCAAAACUUGGAACGAUUUAAGAAAGGAGACGUAAGAUUCUUGAUUUGCACAGAUGUAGCUGCUAGAGGAAUUGAUAUCCAUGGCGUUCCUUAUGUGAUCAAUGUCACUCUGCCU` is reported as 0.193 ratio.
With `GAGCGUCUUGCCCGCACUGGGAUCAUCGUGACCACGAGUGAGGCUGUCCUCCUACAGCUGGUGGCUGACAAAGACCAUCCAAAAUUCAAGGAAAUUCAGAACCUAAUUAAGGCGAGUGCC` the bound/input enrichment was 0.12 ratio.
`CAGUCCCCGUGUCCCAGUGCAGGACGAUGUGAACAAAAACUCAAAGCGGCCCUUUCUUUGUAGUUCUUGAUUCUCGAAAUGUGCUAUUAUUGUUUGUCUUUUUUUUUUUUUUUUUAAAGA` has a bound/input enrichment of 2.45 ratio.
For `UUGAAAACAAACUGAUUUAAGUUUGAGUAUCACAAUGUUAGCUUUCUAAUUCCAUAAAAGUACUUGGUACAGUUUCUUUAUAAUCUGACAUCACCCCAGCGCCAUUUGUAAAGAGCAACU`, the bound/input enrichment was 0.695 ratio.
For `AGAAUCUUGGGACUGUUUUGCUUGAUUGGUCAUUGAUAGCUUAACAAACAUGGAGAUAAGAUUAGAAAUCUUGACAUCAACAGGUAUUAAGCAGAAAAAACCCUGGCCACGUGUCUCCUG`, the bound/input enrichment was 0.157 ratio.
`AACAUUUUGUCAAAUUGUUAUGUUCCUGUGAAACAAGUGAACACUCUGAUACACUUCAUCUGCUUGUACAUCUGUAUGAUAGAGAAACAGAAAUCUAUUAAUCCAAGCAAUGUGUCACUU` has a bound/input enrichment of 0.119 ratio.

Repeated from above (study 3):
`ATGCGTCG` gave an E-score of -0.0389.
`CACCCCAC` gave an E-score of -0.136.
For `TTGCGCAA`, the E-score was 0.103.
`ATGCTTAC` has an E-score of 0.054.
